Experimental data of several laboratories.
Protocols differ between the studies behind these lines. Several values in a cell are separate wells, animals, samples, runs or records. In brackets after ≈: the same amount, converted by molar mass.

`Cc1ccc(Nc2n[nH]c3nc(-c4cccc(F)c4)nc(N)c23)cc1` has an IC50 of 7.48 µM (Human rhinovirus 8; cytopathic effect, inhibitor; HeLa).
With `CC1(C)[C@H](NC(=O)/C(=N\OCCN)c2csc(N)n2)C(=O)N1OS(=O)(=O)O` the MIC was > 64 µg/mL (Enterobacter cloacae; agar dilution; CDC 1000654).
`Cc1cccc2c1N(C(=O)n1ccnn1)CC2` has a germination rate of 14.8% and 33.3% and 3% and 11.1% and 32.1% (Arabidopsis thaliana; kai2 mutant, seeds; 30 µM).
With `Cc1c(CN(C)C(=O)/C=C/c2cnc3c(c2)CC(N)C(=O)N3)oc2ccccc12` (centres unmarked) the MIC was 4 µg/mL (≈ 10.2 µM) (Escherichia coli; broth microdilution; AR-0493).
`Nc1nc(-c2ccc(C(F)(F)F)cc2)nc2[nH]nc(Nc3ccc(F)cc3)c12` has an IC50 of 0.77 µM (Human rhinovirus 8; cytopathic effect, inhibitor; HeLa).
Under “viral titre reduction”, `CC(=O)OC[C@H]1O[C@@H](Sc2sc(C(=O)c3ccc(C)cc3)c(N)c2-c2nc3ccccc3s2)[C@H](OC(C)=O)[C@@H](OC(C)=O)[C@@H]1OC(C)=O` is recorded as 0% (human alphaherpesvirus 1; plaque reduction; non-toxic concentration).
`Nc1nc(-c2ccccc2)nc2[nH]nc(Nc3cccnc3)c12` has an IC50 of 4.29 µM (Human rhinovirus 8; cytopathic effect, inhibitor; HeLa).
Under “log2 fold change”, `FC(F)(F)c1cccc(CNc2nc(NC3CCN(Cc4ccccc4)CC3)c3nc[nH]c3n2)c1` is recorded as 0.015 (Cryptococcus neoformans; RNA-seq, refers to: CNAG_03821; wild type; 48 µg/mL, 3 h; baseline: untreated wild type).
Under “viral titre reduction”, `CC(=O)O[C@@H]1[C@@H](OC(C)=O)[C@H](Sc2sc(C(=O)c3ccc(Br)cc3)c(N)c2-c2nc3ccccc3s2)OC[C@@H]1OC(C)=O` is recorded as 40% (human alphaherpesvirus 1; plaque reduction; non-toxic concentration).
For `CCc1nc2cc(C(F)(F)F)ccn2c1C(=O)NCc1ccc2oc(-c3ccc(OC(F)(F)F)cc3)nc2c1`, the MIC90 was > 50 µM (Mycobacteroides abscessus; RFP fluorescence; ATCC 19977, RFP reporter).
`CC(=O)O[C@@H]1[C@@H](OC(C)=O)[C@H](Sc2sc(C(=O)c3ccc(Cl)cc3)c(N)c2-c2nc3ccccc3s2)OC[C@H]1OC(C)=O` — result for “viral titre reduction”: 10% (human alphaherpesvirus 1; plaque reduction; non-toxic concentration).
The MIC90 of `CCc1nc2ccc(C(F)(F)F)cn2c1C(=O)NCc1ccc2oc(-c3ccc(OC(F)(F)F)cc3)nc2c1` is reported as > 100 µM (Mycobacteroides abscessus; RFP fluorescence; ATCC 19977, RFP reporter).
`COc1cc(Nc2n[nH]c3nc(-c4ccccc4)nc(N)c23)cc(OC)c1OC` has an IC50 of 7.62 µM (Human rhinovirus 8; cytopathic effect, inhibitor; HeLa).
With `C[C@@H]1C(=O)O[C@@H](C)/C=C/C=C\[C@@H](C)[C@@H]2C=C[C@@H]3C[C@@]4(C)O[C@H]4[C@@H](C)[C@H]3[C@@H]2C(=O)C(Cl)(Cl)C1=O` the MIC50 was 0.05 µg/mL (≈ 0.101 µM) (Staphylococcus aureus; MSSA and MRSA clinical isolates; 180 isolates).
`C=C[C@]1(C)C[C@@H](OC(=O)CSc2ccc(NC(=O)c3ccco3)cc2)[C@]2(C)[C@H](C)CC[C@]3(CCC(=O)[C@H]32)[C@@H](C)[C@@H]1O` — result for “air sac lesion score”: 2 and 1 and 3 (Mycoplasma gallisepticum; infected chickens; intramuscular, 20 mg/kg daily x3, scale 0 to 4; direction not given).
With `CNCc1ccc2c(c1)C[C@H](CNC(=N)N)[C@H]2NC(=O)C(=O)Nc1ccc(Cl)c(F)c1` the IC80 was > 100 µM (Human immunodeficiency virus 1; viral infection, Env pseudovirus; TZM-bl, 620345.c01 CRF01_AE).
`Nc1nc(-c2ccccc2)nc2[nH]nc(Nc3cc(F)ccc3F)c12` gave an IC50 of 107 µM (Human rhinovirus 8; cytopathic effect, inhibitor; HeLa).
With `OC(Cn1cncn1)(Cn1cc(-[c-]2cccc2)nn1)c1ccc(F)cc1F.[Cl-].[Co+3].c1cc[cH-]c1` (racemic) the motility inhibition was 16% (Trichuris muris; Worminator; adult males and females; 100 µM, day 1).
`CC(C)(C)NCC(SS(=O)(=O)O)c1ccccc1` (centres unmarked) — result for “spleen weight decrease”: 40% (Schistosoma mansoni; perfusion day 44; infected Swiss Webster mice; 600 mg/kg single dose, 1056 h, dosed day 7 post-infection; baseline: vehicle control).
With `Cc1nc2cc(C(F)(F)F)ccn2c1C(=O)NCc1ccc2oc(-c3ccc(OC(F)(F)F)cc3)nc2c1` the MIC90 was > 50 µM (Mycobacteroides abscessus; RFP fluorescence; ATCC 19977, RFP reporter).
The fold change of `Fc1ccc2c(c1)c1nc3ccc(Br)cc3c-1cn2Cc1cn(-c2ccccc2I)nn1` is reported as 2.7 (Giardia duodenalis trophozoites; UHPLC-Q-TOF-MS metabolomics, refers to: lauric acid ethyl ester; IC50, 0.01783 h; baseline: 0.25% DMSO).
With `CCc1nc2ccc(Br)cn2c1C(=O)NCc1ccc2oc(-c3ccc(OC(F)(F)F)cc3)nc2c1` the MIC90 was > 50 µM (Mycobacteroides abscessus; RFP fluorescence; ATCC 19977, RFP reporter).
For `COc1ccc(Nc2n[nH]c3nc(-c4ccccc4)nc(N)c23)cc1`, the IC50 was 11.2 µM (Human rhinovirus 8; cytopathic effect, inhibitor; HeLa).
`OB(O)c1ccc(C(F)(F)F)s1` gave a growth of 23.7% and 32.5% and 69.2% and 64.1% and 46.6% (Staphylococcus epidermidis; 100 µM, 10 h; baseline: untreated).
`CCc1nc2cc(C(F)(F)F)ccn2c1C(=O)NCc1ccc2oc(-c3ccc(Cl)cc3)nc2c1` gave an MIC90 of > 50 µM (Mycobacteroides abscessus; RFP fluorescence; ATCC 19977, RFP reporter).
`Nc1nc(-c2ccccc2)nc2[nH]nc(Nc3ccc(OC(F)(F)F)cc3)c12` gave an IC50 of 6.73 µM (Human rhinovirus 8; cytopathic effect, inhibitor; HeLa).
The adult length of `CC1CC2(N=CCS2)C2(O)OC3CC4(C)C(CC3OC2O1)CC1OC12C4C(O)C(=O)C1(C)C(C3=CC(=O)OC3)CCC12O` (centres unmarked) is reported as 9.91 mm (Oncopeltus fasciatus; diet, concentration not given).
For `CCc1nc2cc(Br)ccn2c1C(=O)NCc1ccc2oc(-c3ccc(OC(F)(F)F)cc3)nc2c1`, the MIC90 was > 25 µM (Mycobacteroides abscessus; RFP fluorescence; ATCC 19977, RFP reporter).
`CC[C@H](C)[C@@H]1NC(=O)[C@@H]([C@@H](C)O)NC(=O)CNC(=O)[C@H](CC(=O)O)NC(=O)CNC(=O)[C@H](CC(=O)O)NC(=O)CNC(=O)[C@H]2CCCCN2C(=O)[C@@H](NC(=O)[C@H](CC(=O)O)NC(=O)/C=C/CCCCCCCCCC(C)C)CNC(=O)[C@@H]2CCCN2C1=O` has an MIC of 2 µg/mL (≈ 1.6 µM) (Enterococcus; broth microdilution; VRE 155, Mueller-Hinton broth, Mg2+ 10 mg/L; 16 h, together with: Ca2+ 10 mM).
With `C=C(NC(=O)c1csc(-c2nc3c(cc2O)-c2nc(cs2)C(=O)NC(C(C)O)C(=O)NC(=C(C)OC)c2nc(cs2)C(=O)NC2c4nc(cs4)C(=O)NC(COC(=O)c4c5c6c(cccc6n4O)COC(=O)C(OC4CC(C)(O)C(N(C)C)C(C)O4)C2OC5)c2nc-3cs2)n1)C(N)=O` (centres unmarked) the MIC90 was 0.0312 µg/mL (Enterococcus faecium; agar dilution; vancomycin-intermediate; 25 isolates).
For `Nc1nc(-c2ccc(OC(F)(F)F)cc2)nc2[nH]nc(Nc3ccccc3)c12`, the IC50 was 1.81 µM (Human rhinovirus 8; cytopathic effect, inhibitor; HeLa).
`CC(C)[C@H]1NC(=O)[C@H](Cc2ccccc2)NC(=O)[C@@H](C(C)C)NC(=O)[C@@H](C)NC(=O)[C@H](CO)NC(=O)[C@@H](Cc2c[nH]c3ccccc23)NC(=O)[C@@H](CO)NC1=O` has an MIC90 of > 50 µM (Vibrio vulnificus; broth dilution).
